Measurements pooled from the literature.
Numbered parts are unrelated; each lists some results of a single study.
Sequence of UniProt P21917 (whole entry, looked up): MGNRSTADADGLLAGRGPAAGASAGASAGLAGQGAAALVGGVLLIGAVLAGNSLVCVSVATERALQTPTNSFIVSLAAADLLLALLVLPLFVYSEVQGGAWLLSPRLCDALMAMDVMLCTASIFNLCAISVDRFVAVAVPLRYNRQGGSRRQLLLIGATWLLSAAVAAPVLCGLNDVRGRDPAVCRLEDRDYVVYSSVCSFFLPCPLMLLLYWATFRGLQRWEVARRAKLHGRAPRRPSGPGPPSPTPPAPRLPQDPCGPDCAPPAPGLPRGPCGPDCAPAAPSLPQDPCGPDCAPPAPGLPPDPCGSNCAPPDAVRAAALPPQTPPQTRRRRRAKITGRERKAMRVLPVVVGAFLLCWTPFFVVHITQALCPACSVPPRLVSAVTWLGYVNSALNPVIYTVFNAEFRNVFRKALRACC
Sequence of UniProt Q99558 (whole entry, looked up): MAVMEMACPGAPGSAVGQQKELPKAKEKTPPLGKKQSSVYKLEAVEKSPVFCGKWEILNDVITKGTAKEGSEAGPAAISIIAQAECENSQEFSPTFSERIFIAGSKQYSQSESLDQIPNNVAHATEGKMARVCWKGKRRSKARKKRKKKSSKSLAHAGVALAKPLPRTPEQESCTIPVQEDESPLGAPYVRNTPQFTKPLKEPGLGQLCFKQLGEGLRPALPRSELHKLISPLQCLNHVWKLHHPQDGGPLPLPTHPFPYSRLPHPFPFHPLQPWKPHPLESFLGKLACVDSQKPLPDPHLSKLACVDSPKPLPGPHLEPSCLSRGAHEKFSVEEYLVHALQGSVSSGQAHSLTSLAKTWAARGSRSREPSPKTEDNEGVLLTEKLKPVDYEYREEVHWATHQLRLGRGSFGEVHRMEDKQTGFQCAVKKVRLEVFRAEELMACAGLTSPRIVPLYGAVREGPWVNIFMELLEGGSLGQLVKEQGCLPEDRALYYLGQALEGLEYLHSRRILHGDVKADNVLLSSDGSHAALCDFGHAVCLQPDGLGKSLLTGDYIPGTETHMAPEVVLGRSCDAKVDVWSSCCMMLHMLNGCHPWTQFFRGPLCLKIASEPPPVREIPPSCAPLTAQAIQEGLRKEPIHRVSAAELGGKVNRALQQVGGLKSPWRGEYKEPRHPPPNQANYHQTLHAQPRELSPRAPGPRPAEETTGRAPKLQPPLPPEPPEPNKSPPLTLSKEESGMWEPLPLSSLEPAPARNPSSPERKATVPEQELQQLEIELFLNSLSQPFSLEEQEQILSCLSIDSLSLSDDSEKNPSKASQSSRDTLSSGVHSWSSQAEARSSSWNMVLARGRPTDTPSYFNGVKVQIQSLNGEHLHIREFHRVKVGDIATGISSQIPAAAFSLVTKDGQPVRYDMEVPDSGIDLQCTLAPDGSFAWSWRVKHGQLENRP
Sequence of UniProt Q6NV75 (whole entry, looked up): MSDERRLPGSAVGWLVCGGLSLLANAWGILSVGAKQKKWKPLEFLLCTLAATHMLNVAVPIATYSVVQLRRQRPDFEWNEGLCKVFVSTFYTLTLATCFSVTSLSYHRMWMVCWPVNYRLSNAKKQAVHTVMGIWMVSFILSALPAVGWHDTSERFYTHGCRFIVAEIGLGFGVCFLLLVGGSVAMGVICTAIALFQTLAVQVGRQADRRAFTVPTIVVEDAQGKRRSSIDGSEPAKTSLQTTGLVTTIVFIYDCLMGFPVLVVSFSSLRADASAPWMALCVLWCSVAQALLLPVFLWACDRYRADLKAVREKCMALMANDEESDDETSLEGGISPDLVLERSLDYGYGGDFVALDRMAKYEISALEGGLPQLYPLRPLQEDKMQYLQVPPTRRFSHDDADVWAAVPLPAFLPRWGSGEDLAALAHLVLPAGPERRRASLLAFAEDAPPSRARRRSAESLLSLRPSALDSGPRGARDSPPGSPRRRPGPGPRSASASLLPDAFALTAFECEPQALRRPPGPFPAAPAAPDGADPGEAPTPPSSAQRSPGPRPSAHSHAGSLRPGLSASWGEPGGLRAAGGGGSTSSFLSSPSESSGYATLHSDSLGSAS
Sequence of UniProt P32302 (whole entry, looked up): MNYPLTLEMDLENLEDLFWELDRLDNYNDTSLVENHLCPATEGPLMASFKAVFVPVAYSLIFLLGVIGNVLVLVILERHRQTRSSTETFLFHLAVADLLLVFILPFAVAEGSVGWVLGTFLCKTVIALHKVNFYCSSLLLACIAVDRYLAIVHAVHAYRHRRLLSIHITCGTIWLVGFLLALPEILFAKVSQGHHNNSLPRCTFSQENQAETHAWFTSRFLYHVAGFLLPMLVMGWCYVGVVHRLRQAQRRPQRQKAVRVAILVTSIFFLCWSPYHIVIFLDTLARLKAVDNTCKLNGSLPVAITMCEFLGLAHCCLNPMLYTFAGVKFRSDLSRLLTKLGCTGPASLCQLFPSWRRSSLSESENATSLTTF
Sequence of UniProt P36896 (whole entry, looked up): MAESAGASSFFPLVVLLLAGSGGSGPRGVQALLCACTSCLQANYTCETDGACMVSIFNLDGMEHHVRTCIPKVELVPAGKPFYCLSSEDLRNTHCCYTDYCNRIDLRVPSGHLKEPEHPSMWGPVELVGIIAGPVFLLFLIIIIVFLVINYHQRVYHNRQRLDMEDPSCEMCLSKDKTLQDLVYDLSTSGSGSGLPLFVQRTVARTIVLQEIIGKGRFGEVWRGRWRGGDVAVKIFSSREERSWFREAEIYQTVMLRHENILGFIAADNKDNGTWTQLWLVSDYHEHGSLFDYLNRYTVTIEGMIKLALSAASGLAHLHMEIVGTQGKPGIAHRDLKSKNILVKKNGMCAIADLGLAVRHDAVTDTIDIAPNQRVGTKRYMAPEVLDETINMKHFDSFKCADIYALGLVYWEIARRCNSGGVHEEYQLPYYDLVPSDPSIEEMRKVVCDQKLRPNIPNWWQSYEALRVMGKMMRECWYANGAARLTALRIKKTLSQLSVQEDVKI
Sequence of UniProt Q9UKP6 (whole entry, looked up): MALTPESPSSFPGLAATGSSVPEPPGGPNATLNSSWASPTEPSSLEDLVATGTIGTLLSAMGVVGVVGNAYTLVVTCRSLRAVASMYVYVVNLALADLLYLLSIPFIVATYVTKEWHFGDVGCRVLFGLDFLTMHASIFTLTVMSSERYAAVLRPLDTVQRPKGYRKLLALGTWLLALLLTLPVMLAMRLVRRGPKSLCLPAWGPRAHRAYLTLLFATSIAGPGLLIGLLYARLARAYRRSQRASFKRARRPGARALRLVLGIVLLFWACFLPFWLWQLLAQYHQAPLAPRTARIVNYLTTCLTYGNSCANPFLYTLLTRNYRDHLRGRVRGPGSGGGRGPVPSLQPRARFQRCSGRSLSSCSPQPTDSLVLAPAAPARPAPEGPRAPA
Sequence of UniProt P49137 (whole entry, looked up): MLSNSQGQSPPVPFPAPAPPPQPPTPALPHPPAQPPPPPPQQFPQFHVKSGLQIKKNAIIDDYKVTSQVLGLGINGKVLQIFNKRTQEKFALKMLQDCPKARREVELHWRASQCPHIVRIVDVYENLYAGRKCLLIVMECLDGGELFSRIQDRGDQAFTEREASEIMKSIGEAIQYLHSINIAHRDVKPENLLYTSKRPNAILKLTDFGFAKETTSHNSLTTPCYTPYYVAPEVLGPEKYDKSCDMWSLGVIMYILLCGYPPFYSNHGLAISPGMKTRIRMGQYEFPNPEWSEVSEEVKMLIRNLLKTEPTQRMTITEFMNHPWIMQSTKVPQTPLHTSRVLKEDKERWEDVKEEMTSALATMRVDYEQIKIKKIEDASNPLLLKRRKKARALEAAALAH
Sequence of UniProt P49841 (whole entry, looked up): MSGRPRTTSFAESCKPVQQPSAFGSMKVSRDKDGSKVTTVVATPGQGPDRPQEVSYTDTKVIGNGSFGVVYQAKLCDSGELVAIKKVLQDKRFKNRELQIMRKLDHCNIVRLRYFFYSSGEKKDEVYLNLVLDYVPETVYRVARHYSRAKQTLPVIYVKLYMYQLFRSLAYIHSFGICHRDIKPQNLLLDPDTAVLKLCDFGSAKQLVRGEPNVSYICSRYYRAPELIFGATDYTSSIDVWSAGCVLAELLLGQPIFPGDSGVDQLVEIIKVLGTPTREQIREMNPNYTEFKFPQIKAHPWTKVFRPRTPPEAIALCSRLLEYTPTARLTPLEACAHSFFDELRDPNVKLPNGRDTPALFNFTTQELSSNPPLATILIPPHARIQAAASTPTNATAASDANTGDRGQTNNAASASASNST
Sequence of UniProt Q6U736 (whole entry, looked up): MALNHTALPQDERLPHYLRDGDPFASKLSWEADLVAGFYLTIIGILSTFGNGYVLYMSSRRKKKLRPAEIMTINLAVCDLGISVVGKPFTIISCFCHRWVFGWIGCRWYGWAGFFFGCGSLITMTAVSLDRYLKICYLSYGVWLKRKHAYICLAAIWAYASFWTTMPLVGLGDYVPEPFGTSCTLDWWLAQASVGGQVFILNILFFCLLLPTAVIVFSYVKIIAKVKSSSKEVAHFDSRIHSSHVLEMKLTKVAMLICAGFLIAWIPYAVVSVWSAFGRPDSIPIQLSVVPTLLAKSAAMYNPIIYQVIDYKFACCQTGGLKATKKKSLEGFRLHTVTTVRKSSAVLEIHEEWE

Sample 1
SMILES: Nc1[nH]nc2nnc(-c3c(-c4ccccc4)nn4ccccc34)cc12
Observed: enzyme activity
Mode: inhibitor
Tested at: 0.5 µM
Reference: control
The remaining activity was 100% (TBK1 (Homo sapiens, UniProt Q9UHD2)).
For ACVR1B (Homo sapiens, UniProt P36896): remaining activity read 107%.
It gave 65.8% for remaining activity (MAPK3 (Homo sapiens, UniProt P27361)).
It gave 99.4% for remaining activity (MAP2K2 (Homo sapiens, UniProt P36507)).
CSNK1G3 (Homo sapiens, UniProt Q9Y6M4) — remaining activity: 104%.
For GSK3B (Homo sapiens, UniProt P49841): remaining activity read 109%.
The remaining activity was 76.4% (MERTK (Homo sapiens, UniProt Q12866)).
For MAP3K14 (Homo sapiens, UniProt Q99558): remaining activity read 102%.
LCK (Homo sapiens, UniProt P06239) — remaining activity: 95.1%.
For ARAF (Homo sapiens, UniProt P10398): remaining activity read 98.4%.
For FGFR1 (Homo sapiens, UniProt P11362): remaining activity read 94.7%.
NEK6 (Homo sapiens, UniProt Q9HC98) — remaining activity: 95.6%.
For MAPKAPK2 (Homo sapiens, UniProt P49137): remaining activity read 105%.
The remaining activity was 101% (TAOK2 (Homo sapiens, UniProt Q9UL54)).

Sample 2
Target: Calcium/calmodulin-dependent protein kinase type II subunit alpha (CAMK2A, Homo sapiens, UniProt Q9UQM7)
Sequence of UniProt Q9UQM7 (whole entry, looked up): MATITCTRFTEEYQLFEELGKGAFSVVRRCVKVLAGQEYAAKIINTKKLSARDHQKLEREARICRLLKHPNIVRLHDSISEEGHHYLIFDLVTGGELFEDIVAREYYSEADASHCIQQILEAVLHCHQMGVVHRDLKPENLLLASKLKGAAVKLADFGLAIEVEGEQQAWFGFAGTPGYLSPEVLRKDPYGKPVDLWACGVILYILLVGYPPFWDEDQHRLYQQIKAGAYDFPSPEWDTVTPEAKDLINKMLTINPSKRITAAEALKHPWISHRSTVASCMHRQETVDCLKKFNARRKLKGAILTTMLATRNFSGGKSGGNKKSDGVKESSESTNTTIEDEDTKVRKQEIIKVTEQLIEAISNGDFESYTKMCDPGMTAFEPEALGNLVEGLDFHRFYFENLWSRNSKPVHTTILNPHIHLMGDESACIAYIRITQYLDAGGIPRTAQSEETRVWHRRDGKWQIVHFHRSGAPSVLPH
Observed: enzyme activity
Mode: inhibitor
Tested at: 10 µM
With O=c1c(O)c(-c2ccc(O[C@@H]3O[C@H](CO)[C@@H](O)[C@H](O)[C@H]3O)c(O)c2)oc2cc(O)cc(O)c12 the inhibition was -9%.
CC(CC(=O)O)CC(=O)O gave an inhibition of 11%.
CCN1CCN(c2ccc(Nc3cc(N(C)C(=O)Nc4c(Cl)c(OC)cc(OC)c4Cl)ncn3)cc2)CC1 has an inhibition of 12%.
For C[C@@H]1CC(=O)NN=C1c1ccc(NN=C(C#N)C#N)cc1, the inhibition was -4%.
With OCC(O)COc1ccc(Cl)cc1 (stereo not drawn) the inhibition was -1%.
With CC(C)[C@H](NC(=O)CN)C(=O)O the inhibition was -7%.
Nc1nc(O)c2ncn(CCC(CO)CO)c2n1 has an inhibition of -10%.
CN1CCN(c2cc3c(nn2)Oc2ccccc2N3C)CC1 has an inhibition of -9%.
For COc1ccc(C(=O)/C=C/c2ccccc2)cc1, the inhibition was -26%.
CC(=O)N[C@@H](CCC(=O)O)C(=O)O has an inhibition of 7%.
N[C@@H](Cc1ccc(O)c(Cl)c1)C(=O)O has an inhibition of -1%.

Sample 3
Cell line: normal-adjacent organoid sample G
Method: CellTiter-Glo
Tested at: 1 µM
Setting: replicate mean
Reference: DMSO
For NS(=O)(=O)c1cc(NC(=O)C2(c3ccccc3Cl)CC2)ccc1Oc1cccc(Cl)c1, the viability was 118%.
CCc1ccccc1C(=O)Nc1n[nH]c2c(C)c(F)c(C3C(C#N)=C(C)N(C)C(C)=C3C#N)cc12 gave a viability of 78.6%.
CN(C)c1ncnc(-c2ccc3nc(Nc4cc(CN5CCN(C(=O)CC(F)(F)F)CC5)ccn4)[nH]c3c2)c1Cl gave a viability of 101%.
With NS(=O)(=O)c1cc(NC(=O)Cc2ccccc2)ccc1Oc1cccc(Cl)c1 the viability was 106%.
CN1CCN(C(=O)C(C)(C)c2ccc(C(=O)Nc3cn4cc(-c5cc(C(C)(C)C)cc(C(C)(C)C)c5)ccc4n3)cc2)CC1 gave a viability of 107%.
Cc1cc(-n2nc(Cc3cc(F)cc(C(F)(F)F)c3)nc2C)ccc1C(N)=O has a viability of 103%.
With C[C@H](c1ccnc(Nc2nc3ccc(-c4cc(N(C)C)ncn4)cc3[nH]2)c1)N1CCN(C(=O)CC(F)(F)F)CC1 the viability was 101%.
C[C@H](NC(=O)c1cnc2n1[C@](C)(Cc1ccc(C#N)cc1)C(=O)N2c1cc(Cl)c(F)c(Cl)c1)C(=O)NC1(c2ccccn2)CC1 gave a viability of 116%.
O=C1CCc2cc(Nc3cc(OC4CCOCC4)c([N+](=O)[O-])cc3Cl)ccc2N1 has a viability of 121%.
With O=C(NCc1ncc(C(F)(F)F)cc1Cl)c1ccc2c(c1)C1(CCS(=O)(=O)CC1)[C@@H](C1CC1)N2S(=O)(=O)c1ccc(F)cc1 the viability was 95.2%.
The viability of CN1CCN(C(=O)C(C)(C)c2ccc(C(=O)Nc3cn4cc(-c5ccncc5)ccc4n3)cc2)CC1 is reported as 54.1%.
Cc1c(NC(=O)c2cc(C(N)=O)nc3cc(F)ccc23)c(C(F)(F)F)nn1Cc1ccc(C#N)cc1 has a viability of 19%.
The viability of Cn1nc(C(=O)NCc2ccc(C(=O)O)cc2)cc1-c1ccc2[nH]ccc2c1 is reported as 106%.
The viability of CCCCN(Cc1ccccc1)C(=O)c1ccc(S(=O)(=O)Nc2ccccc2)cc1 is reported as 99.9%.
CC1=C(C#N)C(c2ccc3c(c2)c(NC(=O)c2ccccc2C)nn3C)C(C#N)=C(C)N1 has a viability of 94.1%.
For CN(C)C(=O)Cn1cc(-c2nc(C3(c4ccc(-c5cnc(N)nc5)cc4)CC3)no2)cn1, the viability was 104%.

Sample 4
Compound: NC(N)=NC(=O)c1nc(Cl)c(N2CCCCCC2)nc1N
Observed: β-arrestin recruitment
Mode: agonist
Method: PRESTO-Tango
Tested at: 10 µM
Reference: untreated
The “fold over basal” was 0.79 (AVPR1A (Homo sapiens, UniProt P37288)).
For G-protein coupled receptor 171 (GPR171, Homo sapiens, UniProt O14626): “fold over basal” read 0.6.
The “fold over basal” was 0.89 (Opsin-5 (OPN5, Homo sapiens, UniProt Q6U736)).
It gave 1.01 for “fold over basal” (SSTR1 (Homo sapiens, UniProt P30872)).
It gave 0.92 for “fold over basal” (Probable G-protein coupled receptor 153 (GPR153, Homo sapiens, UniProt Q6NV75)).
It gave 0.69 fold for “fold over basal” (TBXA2R (Homo sapiens, UniProt P21731)).
For AVPR2 (Homo sapiens, UniProt P30518): “fold over basal” read 0.63.
It gave 0.64 for “fold over basal” (GPR37L1 (Homo sapiens, UniProt O60883)).
It gave 1.03 for “fold over basal” (CXCR5 (Homo sapiens, UniProt P32302)).
For GRM8 (Homo sapiens, UniProt O00222): “fold over basal” read 0.82 fold.
It gave 0.66 for “fold over basal” (CXCR4 (Homo sapiens, UniProt P61073)).
It gave 0.7 fold for “fold over basal” (UTS2R (Homo sapiens, UniProt Q9UKP6)).
For DRD4 (Homo sapiens, UniProt P21917): “fold over basal” read 0.83.

Excerpt of the above (sample 3):
Cc1cc(-n2nc(Cc3cc(F)cc(C(F)(F)F)c3)nc2C)ccc1C(N)=O has a viability of 103%.
C[C@H](NC(=O)c1cnc2n1[C@](C)(Cc1ccc(C#N)cc1)C(=O)N2c1cc(Cl)c(F)c(Cl)c1)C(=O)NC1(c2ccccn2)CC1 gave a viability of 116%.
For NS(=O)(=O)c1cc(NC(=O)C2(c3ccccc3Cl)CC2)ccc1Oc1cccc(Cl)c1, the viability was 118%.
The viability of CN1CCN(C(=O)C(C)(C)c2ccc(C(=O)Nc3cn4cc(-c5ccncc5)ccc4n3)cc2)CC1 is reported as 54.1%.
The viability of CCCCN(Cc1ccccc1)C(=O)c1ccc(S(=O)(=O)Nc2ccccc2)cc1 is reported as 99.9%.
